# Results gathered from unrelated publications.
# Every numbered part comes from another study and shows a few of its results, in no order.

# Sample 1 — organism: Sarcocystis neurona; effect on: parasite growth; tested at: 10 µM; time: 96 h; notes: first screen; baseline: untreated
SMILES,log2 fold change
OCc1cccnc1,0.07
O=C(NCCO[N+](=O)[O-])c1cccnc1,-0.06
CC(C)(C#N)c1cc(Cn2cncn2)cc(C(C)(C)C#N)c1,-0.12
Cc1cn([C@H]2C[C@H](N=[N+]=[N-])[C@@H](CO)O2)c(=O)[nH]c1=O,0.19
CCOC(=O)c1ncn2c1CN(C)C(=O)c1cc(F)ccc1-2,0.45

# Sample 2 — effect on: enzyme activity; mode: inhibitor; tested at: 10 µM
# Target: Calcium/calmodulin-dependent protein kinase type II subunit alpha (CAMK2A, Homo sapiens, UniProt Q9UQM7)
# UniProt Q9UQM7, sequence (whole entry, looked up): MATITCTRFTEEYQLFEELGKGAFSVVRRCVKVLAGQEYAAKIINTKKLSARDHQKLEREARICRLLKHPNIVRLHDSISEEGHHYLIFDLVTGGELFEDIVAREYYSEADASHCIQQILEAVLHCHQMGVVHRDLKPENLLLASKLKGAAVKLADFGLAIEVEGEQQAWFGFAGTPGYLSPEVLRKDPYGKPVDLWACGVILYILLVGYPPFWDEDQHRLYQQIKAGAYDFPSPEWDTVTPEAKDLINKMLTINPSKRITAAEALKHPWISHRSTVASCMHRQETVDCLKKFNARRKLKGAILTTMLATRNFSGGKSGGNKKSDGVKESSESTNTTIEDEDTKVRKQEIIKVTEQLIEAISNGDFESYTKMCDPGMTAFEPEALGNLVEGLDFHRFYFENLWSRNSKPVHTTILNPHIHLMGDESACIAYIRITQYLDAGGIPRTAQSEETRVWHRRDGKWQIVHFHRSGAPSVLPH
Structure (SMILES),inhibition
NC(=O)[C@@H]1C[C@]2(NC(=O)NC2=O)c2cc(F)ccc2O1,-8%
C[C@H]1COc2c(C3(N)CC3)c(F)cc3c(=O)c(C(=O)O)cn1c23,-3%
COc1ccc(-c2oc3c(CCC(C)(C)O)c(O)cc(O)c3c(=O)c2O)cc1,-5%
CCC(=O)O[C@]1(C(=O)CO)CC[C@H]2[C@@H]3CCC4=CC(=O)CC[C@]4(C)[C@H]3CC[C@@]21C,-7%

# Sample 3 — effect on: ligand displacement; tested at: 10 µM
# Target: Alpha-2A adrenergic receptor (ADRA2A, Homo sapiens, UniProt P08913)
# UniProt P08913, sequence (whole entry, looked up): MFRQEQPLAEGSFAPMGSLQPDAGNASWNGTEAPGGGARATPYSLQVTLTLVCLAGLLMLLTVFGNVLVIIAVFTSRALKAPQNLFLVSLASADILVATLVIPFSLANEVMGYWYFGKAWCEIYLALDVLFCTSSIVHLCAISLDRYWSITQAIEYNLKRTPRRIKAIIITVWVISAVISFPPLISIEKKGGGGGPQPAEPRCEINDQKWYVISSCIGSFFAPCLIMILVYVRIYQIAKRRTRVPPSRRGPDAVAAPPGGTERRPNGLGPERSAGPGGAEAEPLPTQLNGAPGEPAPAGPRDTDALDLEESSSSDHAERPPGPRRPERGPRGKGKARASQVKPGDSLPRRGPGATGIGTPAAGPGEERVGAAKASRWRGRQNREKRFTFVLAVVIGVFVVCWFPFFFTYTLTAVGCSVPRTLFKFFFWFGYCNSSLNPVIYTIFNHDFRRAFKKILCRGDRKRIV
SMILES,inhibition
O=c1nc(-c2ccccn2)sc2ccccc12,0.132%
CCOc1ccc(S(=O)(=O)Nc2ccc(Cl)cc2C#Cc2cnc(C(=O)O)cc2OC)c2ncccc12,26%
COCCOc1nc(-c2ccc(Cl)nc2)nc2c1CN(C(=O)c1ncn3ccccc13)CC2,-10.2%
Cn1cc(Cl)c2c(Oc3c(F)cc(Nc4cc(Cl)nc(N)n4)cc3F)ccnc21,-23.9%
COc1cc(N[C@@H]2CCCC[C@]2(O)C(F)(F)F)ccc1F,-18.7%
CNC(=O)Nc1ccc2c(c1)CC[C@]21OC(=O)N(CC(=O)N(Cc2ccc(F)cc2)[C@@H](C)C(F)(F)F)C1=O,3.72%
C[C@@H](c1cccc(C#N)c1)n1cc(Cl)cc(C(N)=O)c1=N,-1.01%
O=S(=O)(NC1CCC(c2cc(F)ccc2F)(S(=O)(=O)c2ccc(Cl)cc2)CC1)C(F)(F)F (stereo not drawn),8.45%
Cc1cc(Nc2nccc(C)n2)cc(-c2cnc([C@@]3(O)CC[C@H](C(=O)O)C(C)(C)C3)s2)c1,-2.14%
Cc1c(NC(=O)c2cc(C(N)=O)nc3cc(F)ccc23)c(C(F)(F)F)nn1Cc1ccc(C#N)cc1,0.0425%
COc1cc(C(=O)O)ncc1C#Cc1ccccc1NS(=O)(=O)c1cccc2c(N(C)C)ccnc12,44.4%
CCc1ccccc1C(=O)Nc1n[nH]c2c(C)c(F)c(C3C(C#N)=C(C)N(C)C(C)=C3C#N)cc12,5.01%
C[C@@H]1CN(c2cc(-c3n[nH]c4ccc(OC5(C)CC5)cc34)ncn2)C[C@H](C)O1,-2.84%
Nc1cnc(N2CCc3cc(S(=O)(=O)Nc4c(F)cc(Cl)cc4F)cc(N4CCCC4=O)c32)nc1,-10.1%
Cc1noc([C@H]2C[C@@H](c3ccc(C(F)(F)F)cc3)CN(C(=O)N3CCS(=O)(=O)C3)C2)n1,6.96%
Cc1ncc(-c2cc(Cl)ccc2F)cc1-n1c(=O)n(CC(N)=O)c2ccccc21,3.1%
CCC(=NO)C(C)=Cc1ccc(F)c(C)c1,2.82%
C[C@H](c1ccc(F)cc1)N(Cc1cccc(C(=O)O)c1)C(=O)c1cnc2ccccc2c1,-11.2%
Cn1nc(C(=O)NCc2ccc(C(=O)O)cc2)cc1-c1ccc2[nH]ccc2c1,-14.2%

# Sample 4 — host: human; sample: microsomes or S9; tested at: 2 µM; time: 0.5 h
Structure (SMILES),remaining compound [%]
CNc1cc(Cn2c(C(=O)c3cc(C)cc(Br)c3)c(C(C)C)c(=O)[nH]c2=O)cc(F)n1,7.83
O=C(Cn1cnc2ccccc21)NCc1n[nH]c(=O)c2ccccc12,> 100
CC(C)(C)NC(=O)CN1CCN(c2cc(C(=O)O)c3cc(NS(=O)(=O)c4ccc(F)cc4)ccc3n2)CC1,> 99
CN(Cc1cccnc1)C(=O)c1c(OCC2CC2)cc(=O)n2c1CCCCC2,50.5
CCC(C)(CNC(=O)c1sc(-c2c(C)noc2C)nc1C)OC (stereo not drawn),87.5

# Sample 5 — mode: agonist
# Target: Beta-1 adrenergic receptor (ADRB1, Homo sapiens, UniProt P08588)
# UniProt P08588, sequence (whole entry, looked up): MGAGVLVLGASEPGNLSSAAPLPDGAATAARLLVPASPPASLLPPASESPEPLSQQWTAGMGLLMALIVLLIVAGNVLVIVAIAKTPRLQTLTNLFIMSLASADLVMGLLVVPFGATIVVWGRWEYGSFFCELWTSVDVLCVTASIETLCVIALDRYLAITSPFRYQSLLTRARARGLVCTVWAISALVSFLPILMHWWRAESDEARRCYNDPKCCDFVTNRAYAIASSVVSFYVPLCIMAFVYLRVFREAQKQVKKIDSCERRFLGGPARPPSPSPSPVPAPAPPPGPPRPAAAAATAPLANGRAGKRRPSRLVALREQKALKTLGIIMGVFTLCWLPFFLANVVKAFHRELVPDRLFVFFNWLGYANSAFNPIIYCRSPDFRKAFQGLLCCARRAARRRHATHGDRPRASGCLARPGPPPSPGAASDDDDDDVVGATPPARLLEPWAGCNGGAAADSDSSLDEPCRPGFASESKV
Compound,EC50
O=C1c2cnc(-c3cccc(O)c3)nc2OCCN1c1cccc(C(F)(F)F)c1,≥ 100 µM
COc1cc(-c2cc(-c3ccccc3)nc3c(C)noc23)ccn1,≥ 100 µM
c1ccc(-c2nc(NCc3cc4n(n3)CCCNC4)c3ccccc3n2)cc1,≥ 100 µM
Cc1cc(=O)oc2c(O)c(O)ccc12,≥ 100 µM
Cc1[nH]c(/C=C2/C(=O)Nc3ccc(F)cc32)c(C)c1C(=O)NC[C@H](O)CN1CCOCC1,≥ 100 µM
CN(C)c1cccc(NC(=O)C2=NO[C@@H]3CN(c4cccnc4)C[C@H]23)c1,≥ 100 µM

# Sample 6 — effect on: enzyme activity; mode: inhibitor; tested at: 77 µM; baseline: untreated
# Target: DNA polymerase theta, ATPase domain (POLQ, Homo sapiens, UniProt O75417)
# UniProt O75417, sequence (whole entry, unmodified, looked up): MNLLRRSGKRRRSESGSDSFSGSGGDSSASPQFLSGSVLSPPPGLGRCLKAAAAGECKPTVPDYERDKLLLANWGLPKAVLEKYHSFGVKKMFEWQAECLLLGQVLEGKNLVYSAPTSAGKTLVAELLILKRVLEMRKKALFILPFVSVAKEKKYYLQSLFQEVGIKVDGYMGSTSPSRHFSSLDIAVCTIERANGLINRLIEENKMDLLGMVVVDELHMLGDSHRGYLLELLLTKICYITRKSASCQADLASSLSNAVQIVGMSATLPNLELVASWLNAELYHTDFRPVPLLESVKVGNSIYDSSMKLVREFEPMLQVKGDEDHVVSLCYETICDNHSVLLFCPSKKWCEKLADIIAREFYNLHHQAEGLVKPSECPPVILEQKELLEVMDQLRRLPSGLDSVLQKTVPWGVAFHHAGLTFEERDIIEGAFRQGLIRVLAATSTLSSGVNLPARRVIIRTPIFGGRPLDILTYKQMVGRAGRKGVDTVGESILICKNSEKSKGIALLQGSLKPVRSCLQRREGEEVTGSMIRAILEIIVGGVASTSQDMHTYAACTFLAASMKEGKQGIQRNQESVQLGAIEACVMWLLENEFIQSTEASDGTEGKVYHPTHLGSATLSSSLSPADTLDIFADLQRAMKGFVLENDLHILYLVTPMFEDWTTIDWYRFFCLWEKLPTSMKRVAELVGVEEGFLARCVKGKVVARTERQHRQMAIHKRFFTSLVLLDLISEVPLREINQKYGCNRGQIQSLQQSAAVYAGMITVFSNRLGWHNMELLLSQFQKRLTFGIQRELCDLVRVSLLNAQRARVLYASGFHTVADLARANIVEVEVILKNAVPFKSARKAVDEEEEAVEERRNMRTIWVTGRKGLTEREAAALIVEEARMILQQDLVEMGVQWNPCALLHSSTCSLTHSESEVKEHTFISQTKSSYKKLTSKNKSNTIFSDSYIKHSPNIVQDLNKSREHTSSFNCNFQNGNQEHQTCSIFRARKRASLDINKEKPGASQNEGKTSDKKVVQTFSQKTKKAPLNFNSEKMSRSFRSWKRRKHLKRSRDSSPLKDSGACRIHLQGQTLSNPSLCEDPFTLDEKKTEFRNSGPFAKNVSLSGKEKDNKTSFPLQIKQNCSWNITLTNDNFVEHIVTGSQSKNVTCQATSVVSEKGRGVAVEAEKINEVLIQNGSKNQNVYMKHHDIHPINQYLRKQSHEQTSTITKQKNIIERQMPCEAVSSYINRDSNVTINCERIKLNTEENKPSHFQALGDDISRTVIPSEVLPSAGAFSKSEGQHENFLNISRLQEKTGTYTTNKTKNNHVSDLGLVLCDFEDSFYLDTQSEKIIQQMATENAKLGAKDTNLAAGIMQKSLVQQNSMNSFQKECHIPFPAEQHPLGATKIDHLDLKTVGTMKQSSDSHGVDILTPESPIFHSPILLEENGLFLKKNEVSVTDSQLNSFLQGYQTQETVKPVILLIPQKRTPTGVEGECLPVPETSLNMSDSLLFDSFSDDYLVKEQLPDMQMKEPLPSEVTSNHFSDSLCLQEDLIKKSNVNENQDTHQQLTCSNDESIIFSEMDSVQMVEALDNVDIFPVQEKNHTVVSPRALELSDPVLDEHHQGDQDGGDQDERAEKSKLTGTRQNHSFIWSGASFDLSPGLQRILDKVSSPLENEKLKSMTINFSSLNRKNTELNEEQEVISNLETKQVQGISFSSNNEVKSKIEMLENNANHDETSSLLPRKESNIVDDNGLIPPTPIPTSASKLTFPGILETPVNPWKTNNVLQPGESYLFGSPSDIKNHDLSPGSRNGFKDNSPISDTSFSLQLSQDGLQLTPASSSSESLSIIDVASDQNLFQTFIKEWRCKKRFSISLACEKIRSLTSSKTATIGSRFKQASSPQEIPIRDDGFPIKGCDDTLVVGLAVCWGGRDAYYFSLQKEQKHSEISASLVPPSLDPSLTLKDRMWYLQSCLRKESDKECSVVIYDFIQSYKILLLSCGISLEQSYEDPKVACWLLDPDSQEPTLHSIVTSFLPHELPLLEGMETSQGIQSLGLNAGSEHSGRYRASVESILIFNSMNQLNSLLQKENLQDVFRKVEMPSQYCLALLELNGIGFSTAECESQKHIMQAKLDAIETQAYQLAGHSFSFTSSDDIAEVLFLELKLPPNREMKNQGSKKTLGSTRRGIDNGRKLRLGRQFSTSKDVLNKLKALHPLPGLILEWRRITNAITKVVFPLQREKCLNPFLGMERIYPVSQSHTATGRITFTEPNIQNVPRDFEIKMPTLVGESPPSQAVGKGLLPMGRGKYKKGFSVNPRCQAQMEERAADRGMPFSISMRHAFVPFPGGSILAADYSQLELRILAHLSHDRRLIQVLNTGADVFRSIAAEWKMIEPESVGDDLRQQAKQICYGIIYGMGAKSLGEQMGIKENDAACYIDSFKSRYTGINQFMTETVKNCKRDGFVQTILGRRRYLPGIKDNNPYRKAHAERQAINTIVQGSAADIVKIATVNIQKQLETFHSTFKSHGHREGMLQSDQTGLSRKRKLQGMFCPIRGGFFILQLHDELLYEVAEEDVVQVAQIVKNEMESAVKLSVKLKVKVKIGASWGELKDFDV
SMILES,remaining activity [%]
O=C1NC(=O)/C(=C\c2ccc(-c3ccc(F)cc3)o2)S1,91.6
COCCOc1cc2nc[nH]c(=O)c2cc1OCCOC,101
C=CC[C@H](N)C(=O)O,86.5
